Experimental data of several laboratories.
Each line is one published result; not all experiments were run side by side. Numbers after ± are the reported error.
Target: 5-hydroxytryptamine receptor 2A (HTR2A, Homo sapiens, UniProt P28223)
Chain of UniProt P28223 (whole entry, looked up): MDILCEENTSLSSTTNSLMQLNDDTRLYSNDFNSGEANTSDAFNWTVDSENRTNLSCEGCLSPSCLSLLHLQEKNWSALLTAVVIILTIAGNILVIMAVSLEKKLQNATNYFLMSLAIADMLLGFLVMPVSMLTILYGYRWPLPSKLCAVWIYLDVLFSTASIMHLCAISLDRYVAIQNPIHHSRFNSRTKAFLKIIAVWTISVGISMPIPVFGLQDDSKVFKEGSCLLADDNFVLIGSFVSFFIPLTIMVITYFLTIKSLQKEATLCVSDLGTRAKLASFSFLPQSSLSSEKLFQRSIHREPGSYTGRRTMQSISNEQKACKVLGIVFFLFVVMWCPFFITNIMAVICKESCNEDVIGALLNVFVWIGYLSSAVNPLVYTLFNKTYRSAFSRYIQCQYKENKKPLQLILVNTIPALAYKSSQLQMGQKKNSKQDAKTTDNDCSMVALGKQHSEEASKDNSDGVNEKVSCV

SMILES | test | test system | conditions | how to read | quantity | value
COc1cc(CCNC(C)c2ccccc2O)c(OC)cc1C#N (single isomer, unassigned; (+)) | agonist |  | cell-based |  | Emax | 91%
Cn1cccc1-c1cccnc1 | binding |  | 50 µM |  | inhibition | -11.3%
C/C=C1/CN2CC[C@]34C(=C(C(=O)OC)[C@H]1C[C@H]23)Nc1ccc(I)cc14 |  |  | 10 µM |  | inhibition | < 50%
CCCC(NCCc1cc(OC)c(C#N)cc1OC)c1ccccc1O (stereo not shown) | agonist |  |  |  | Emax | 64%
CC(C)N(CCc1c[nH]c2cccc(OC(=O)CCCC(=O)O)c12)C(C)C.Cl | inositol phosphate accumulation, agonist, HTRF IP1 | HEK293 | concentration not given |  | activity | inactive
CN1CCN(c2cc(-c3ccncc3)c(-c3ccc4ccccc4c3)nn2)CC1 | agonist, FLIPR |  | 12.5 µM |  | activation | -8.5%
COc1c(Br)c2c3c(c1OC)-c1cc4c(cc1C[C@@H]3N(C)CC2)OCO4 | calcium flux, antagonist, FLIPR | HEK293 | added: serotonin |  | apparent Kb | 48 ± 2 nM
CN1CCN(c2nc(N)c3ccccc3n2)CC1 | radioligand binding, radioligand competition binding |  | 0.1 µM, second replicate | reference: control specific binding | inhibition | 9.4%
CNC(C)Cc1ccc2nsnc2c1 (stereo not shown) | agonist |  |  | reference: 5-HT | Emax | 67.2 ± 2.3%
COc1cc(CCNC(C)c2ccccc2)c(OC)cc1C#N (stereo not shown) | agonist |  |  |  | Emax | 74%
CNC(C)Cc1ccc2nonc2c1 (stereo not shown) | agonist |  |  | reference: 5-HT | Emax | 56.1 ± 2.3%
N#C[C@@]12C[C@@H]1[C@@H](n1cnc3c(N)nc(Cl)nc31)[C@H](O)[C@@H]2O |  |  | concentration not given |  | activity | inactive
COc1c(Cl)c2c3c(c1OC)-c1cc4c(cc1C[C@@H]3N(C)CC2)OCO4 | calcium flux, antagonist, FLIPR | HEK293 | added: serotonin |  | apparent Kb | 63 nM
